Assay results pooled from the literature.
Protocols differ between the studies behind these lines.

Compound | tested on | assay | test system | conditions | how to read | endpoint | value
C[C@]1(O)C[C@@](N)(c2ccc(-c3nc4n(c3-c3ccccc3)COc3ccncc3-4)cc2)C1 |  |  | human, advanced or metastatic solid tumours | dose not given, all patients |  | patients with decreased appetite TEAE | 29.4%
Clc1ccc2nc(N3CCC(NCCc4cccnc4)CC3)sc2c1 | Vero-E6 | CellTiter-Glo ATP |  | concentration not given, 72 h, second round 5-point | reference: DMSO 0%, hyamine -100%, more negative, more toxic | cytotoxicity efficacy | -15.3%
COc1ccc(-c2c(-c3ccc(C#N)c(F)c3)nc(N3CCC(N)CC3)n(C)c2=O)cc1F |  | item: portal vein thrombosis | human patients | oral, 60 mg, dose expansion |  | patients with serious TEAE | 0%
C=CC(=O)Nc1cc(Nc2nccc(Nc3cc(Cl)c(F)cc3C(C)(C)O)n2)c(OC)cc1N1CC[C@@H](N(C)C)C1 |  |  | human patients | oral, 200 mg, treatment-emergent adverse events |  | patients with rash | 18.8%
CN(C)C(=O)c1cc2cnc(Nc3ccc(N4CCNCC4)cn3)nc2n1C1CCCC1 |  | item: other hematologic AESIs | human, HR+/HER2− advanced breast cancer | oral, dose not given, grade 4, CTCAE v4.03 |  | patients with adverse event | 0.3%
Cc1ccc(-c2cccc(CN3CCCC(NC(=O)c4c(C)noc4C)C3)c2)cc1Cl (stereo not drawn) | Vero-E6 | CellTiter-Glo ATP |  | concentration not given, 72 h, first round 5-point | reference: DMSO 0%, hyamine -100%, more negative, more toxic | cytotoxicity efficacy | 0%
C[C@@H]1OC(=O)NN=C1c1ccc(-c2ccc(F)cc2)c(C(F)(F)F)c1 |  | phase I trial, item: Pneumonitis worst grade 3 | human patients | 10 mg loading then 0.5 mg daily |  | patients with adverse event | 0%
Cc1cn([C@H]2O[C@@H](CO[P@@](=O)(N[C@@H](C)C(=O)OC(C)C)Oc3ccccc3)[C@H](O)[C@H]2F)c(=O)[nH]c1=O |  | item: grade 3 | human | 25 mg |  | patients with ALT/AST elevation | 0%
COc1ncnn2ccc(-c3cnc4nc(C)n(Cc5nnc([C@@H](C)F)o5)c4c3)c12 |  |  | human | oral, dose not given, grade 5 |  | patients with diarrhea | 0%
N[C@@H]1c2ccccc2OC12CCN(c1cnc3c(N4CCCc5ncccc54)n[nH]c3n1)CC2 |  | item: Diarrhea | human advanced or metastatic solid tumours | oral, 60 mg once daily, phase Ia pooled cohort |  | patients with treatment-related adverse event | 52%
Cn1cncc1-c1c(F)cncc1NC(=O)c1c(N)nn2cc(F)cnc12 |  |  | human patients | oral, 150 mg twice daily, 4 days on 3 days off |  | patients grade ≥3 Lymphocyte count decrease | 25%
O=C1Nc2cc3[nH]nc(-c4ccncc4)c3cc2CN1Cc1ccccc1 |  | CTCAE v4.03 | human, relapsed or refractory advanced solid tumours | intravenous, 7.2 mg/kg, pooled schedules |  | patients with vomiting | 60%

A few entries again:
Compound | tested on | assay | test system | conditions | how to read | endpoint | value
C[C@@H]1OC(=O)NN=C1c1ccc(-c2ccc(F)cc2)c(C(F)(F)F)c1 |  | phase I trial, item: Pneumonitis worst grade 3 | human patients | 10 mg loading then 0.5 mg daily |  | patients with adverse event | 0%
